Published values of several laboratories.
± marks the error that the study gave.
Target: Albumin (ALB, Homo sapiens, UniProt P02768)

Under “time to complete conversion”, CC(C)N(CCc1c[nH]c2cccc(OC(=O)CCCC(=O)O)c12)C(C)C.Cl is recorded as at most 30 min (substrate, refers to: 4-hydroxytryptamine; human serum 4%).
For CC1(C)NC(=O)N(c2ccc(F)c(C(F)(F)F)c2F)C1=O, the unbound fraction was 0.422.
NC(=O)C(c1ccccc1)(c1ccc(F)cc1)c1ccc(OCCF)cc1 (centres unmarked): “retention factor k'” 25 (binding, HPAC-MS; immobilized protein column; 20 µM, pH 7.4, with: ammonium acetate/isopropanol mobile phase).
For Fc1ccc(N2CCNCC2COc2ccc3c(c2)OCO3)cc1 (centres unmarked), the fraction unbound was about 0.1 (HPLC retention on immobilised albumin; human serum albumin column).
CCOc1ccc(-c2nc3ccc(-c4nc5ccc(N6CCN(C)CC6)cc5[nH]4)cc3[nH]2)cc1 has a Kd of 10 ± 4 µM (binding, fluorescence titration; PBS; 1 h).
With N#Cc1ccc(N2CCN(Cc3ccc(COc4cccc5c4CN([C@H]4CCC(=O)NC4=O)C5=O)cc3)CC2)c(F)c1 the fraction unbound was 0.047 (equilibrium dialysis; human serum albumin 50 mg/mL; 6 h, 37 °C).
With O=C(O)C(F)(F)C(F)(F)C(F)(F)C(F)(F)C(F)(F)C(F)(F)C(F)(F)F the Kd was 11.3 µM (isothermal titration calorimetry; 25 °C, low-affinity sites, two-site model).
For OC[C@H]1O[C@@H](Oc2cc3c(O)cc(O)cc3[o+]c2-c2cc(O)c(O)c(O)c2)[C@H](O)[C@@H](O)[C@@H]1O, the Kd was 1.64 ± 0.57 µM (binding, visible absorption spectroscopy; pH 7, with: HSA 200 µM).
For CC1(CC(F)(F)F)NC(=O)N(c2ccc(F)c(C(F)(F)F)c2)C1=O (centres unmarked), the unbound fraction was 0.193.
COc1cc(-c2[o+]c3cc(O)cc(O)c3cc2O[C@@H]2O[C@H](CO)[C@@H](O)[C@H](O)[C@H]2O)cc(OC)c1O has a Kd of 85.99 ± 0.04 µM (binding, fluorescence quenching; pH 7, 20 °C, HSA 2 µM).
O=C1CCC(N2Cc3cc(CNC(=O)C(F)(F)c4ccc(Cl)cc4)ccc3C2=O)C(=O)N1 (centres unmarked) has a fraction unbound of 0.167 (equilibrium dialysis; human serum albumin 50 mg/mL; 6 h, 37 °C).

A few entries again:
For CC1(CC(F)(F)F)NC(=O)N(c2ccc(F)c(C(F)(F)F)c2)C1=O (centres unmarked), the unbound fraction was 0.193.
For OC[C@H]1O[C@@H](Oc2cc3c(O)cc(O)cc3[o+]c2-c2cc(O)c(O)c(O)c2)[C@H](O)[C@@H](O)[C@@H]1O, the Kd was 1.64 ± 0.57 µM (binding, visible absorption spectroscopy; pH 7, with: HSA 200 µM).
